Experimental data pooled from the literature.
Numbered parts are unrelated; each lists some results of a single study.

Series 1 — method: RNA Bind-n-Seq; molecule type: RNA; medium: in vitro; tested at: 200 nM; setting: whole 134-nt RNA, ends assumed; added: 150 mM LiCl; relative to: input library; direction: higher = stronger binding; quantity: log2 enrichment; each molecule: 7-deaza-guanosine replaces G
Target: Ras GTPase-activating protein-binding protein 1, full length (G3BP1, Homo sapiens, UniProt Q13283)
UniProt Q13283, sequence (whole entry, looked up): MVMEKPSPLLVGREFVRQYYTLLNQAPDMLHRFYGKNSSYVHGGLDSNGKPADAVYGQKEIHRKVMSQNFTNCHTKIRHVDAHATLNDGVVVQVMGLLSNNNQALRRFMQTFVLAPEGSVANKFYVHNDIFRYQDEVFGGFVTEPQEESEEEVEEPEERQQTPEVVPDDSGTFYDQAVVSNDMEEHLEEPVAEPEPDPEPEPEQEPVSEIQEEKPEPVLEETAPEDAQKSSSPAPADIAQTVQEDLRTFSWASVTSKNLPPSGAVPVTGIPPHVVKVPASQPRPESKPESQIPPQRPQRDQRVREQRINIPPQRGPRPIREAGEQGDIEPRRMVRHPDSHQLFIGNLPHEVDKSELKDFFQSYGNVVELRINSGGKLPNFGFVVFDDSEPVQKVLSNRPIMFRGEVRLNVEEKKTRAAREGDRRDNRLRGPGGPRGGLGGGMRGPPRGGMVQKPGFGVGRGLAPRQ
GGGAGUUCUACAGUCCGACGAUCUUUUUCCAGAGCUCACAACGACCUGGGGCUGAGGACAAUGUCCUCAAUGAGAUCGUGAGUAUCUUGCAGCCCACCCAGGUCCCUGAGCAGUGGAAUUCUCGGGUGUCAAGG: -1.01
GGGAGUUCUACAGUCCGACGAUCAAGUCCUGUGCUACACAUCGUAUGUACCGAAUCGGUUUUUUUGGUUUUUUUGGUGGAAAGUAUUAUGUUACGCCGUUCGGAUCUGCACUUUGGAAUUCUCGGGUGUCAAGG: -1.68
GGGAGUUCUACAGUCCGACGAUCGUCCUGUGCUACACAUCGUAUGUACCGAAUCGGUUUUUUGGUUUUUUGGUUUUUUGGGAAAGUAUUAUGUUACGCCGUUCGGAUCUGCACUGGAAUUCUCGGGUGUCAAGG: -1.09
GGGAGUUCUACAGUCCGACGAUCAGUCCUGUGCUACACAUCGUAUGUACCGAAUCGGGAAAGGGUUUGGGUUUUUUUGGGAAAGUAUUAUGUUACGCCGUUCGGAUCUGCACUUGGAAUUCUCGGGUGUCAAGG: -1.54
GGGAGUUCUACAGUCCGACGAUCUGGGAGGUGGAUUUUGUUUAUUUAUUUAGCUCAUUUCCAGGGGUGGGAAUUUUUUUUUAAUAUGUGUCAUGAAUAAAGUUGUUUUUGAAAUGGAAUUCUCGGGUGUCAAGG: -0.64
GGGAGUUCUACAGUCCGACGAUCACCAUGCAGGUGGGCAUCUUUGGGAAGUGGGGCAAGGGGGGGAUAGGGAGGGGGGUAACAAAUUGGGAACAGGUGGUCCCAGGUCGUUUCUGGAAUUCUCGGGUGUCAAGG: 0.00706
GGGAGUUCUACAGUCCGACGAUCUCCUGUGCUACACAUCGUAUGUACCGAAUCAAAUUUUUAAACCCCCAAAUUUUUUUAAAAAAGUAUUAUGUUACGCCGUUCGGAUCUGCAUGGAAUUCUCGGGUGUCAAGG: 0.664
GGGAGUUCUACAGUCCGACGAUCACCAUGCAGGUGGGCAUCUUUGGGAAGUGGGGCAAGGGGGGGAUAGGGAGGGGGGUAGCACUUUGGGAACAGGUGGUCCCAGGUCGUUUCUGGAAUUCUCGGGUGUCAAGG: 0.202
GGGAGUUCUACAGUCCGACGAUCGGCAAGAGGAGGAACGACGUAGAAGAGAGGAAGAGAUGAUGAUUCGUCAACGUGAGAUGGAAGAACAAAUGAGGCGCCAAAGAGAGGAAAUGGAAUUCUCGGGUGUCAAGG: 1.1
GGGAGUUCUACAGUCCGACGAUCCACAGACAACACGCACCCACACAGACACAGAGGGAAGGGGUUGGGAUGGGGACAGGGUGCACAGCAGGGCGGGGUAGGACCCCAGUCCCUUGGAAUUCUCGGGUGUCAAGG: -1.36
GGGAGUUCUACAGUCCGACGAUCGCAGGAAGUAAAAACAAAUAAAAAUGCUUCGGAUAGUGGCAGGGGUGGGGGUUGCUAAGGAAAGGGUGGGAUGGGAGUGGGUAAAGAGUUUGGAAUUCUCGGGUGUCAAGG: -0.135

Series 2 — method: RNA Bind-n-Seq; molecule type: RNA; medium: in vitro; tested at: 365 nM; relative to: no-protein control; direction: higher = stronger binding; quantity: RBNS enrichment (R)
Target: RNA binding protein fox-1 homolog 2, RRM domain, GST-SBP tag (RBFOX2, Homo sapiens, UniProt O43251-10, residues 100-194)
Setting: natural RNA segment, single round, ends assumed
Construct (chain): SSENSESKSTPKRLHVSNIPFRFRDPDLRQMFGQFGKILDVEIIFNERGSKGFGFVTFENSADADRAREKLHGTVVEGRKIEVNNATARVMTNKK
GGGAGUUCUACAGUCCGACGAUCCAUAUAGGGACCCCACCAAGAGGCUCUCCUCUCCCCUUCUUAAUCCCAGUAUAGACUGAGUGUCCACUUCAGCAAAGGUGUUUUCAUCCCAGCCUUGGUUUGGAGCUUGCUGGAAUUCUCGGGUGCCAA: 0.511
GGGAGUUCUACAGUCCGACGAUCCUCACACUCACUCUCUGUUGAGCUUCUUCCCAGGGAAGGGGAUUCUGGGACAGGGGGCUGCCACUAAGCACACACACUCCUCCUAUUUUCCAGAAGUGAACAUUUCAUGUUGGAAUUCUCGGGUGCCAA: 0.547
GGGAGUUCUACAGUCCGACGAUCCUAUCUGGAACUGUGUCUGUCAGACCAAUGGUACCAGGGAGGCUGCAGUGCUGCCAGCUUUUCAAGGGUCCUGACUCUGUCAGACACUUUCUGGAUUCAGCCACUAAGGAUGGAAUUCUCGGGUGCCAA: 0.301
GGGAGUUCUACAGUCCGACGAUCAUGGUCUUGCCAGCAUAGGCUUGCUAGUUCCUUCUUGGUCAGAGGUAGCUGCAGAGGGGGGAGGCCAAGGGUUUGGUCUAAGCUGUGCCCUGCCACCUGGCAGGAGGCCCUGGAAUUCUCGGGUGCCAA: 0.455
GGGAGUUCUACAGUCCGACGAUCUUGCUGGUGGGGUCCCCCCUGGUAUCCUCCCCACCCUGACACUUCAAGUCUGCGAGGCUAGGCACUUCCUCUCCCACGAAGGCCAGACAAGAAGGCCCAGCUAGAAGAACUGGAAUUCUCGGGUGCCAA: 0.413
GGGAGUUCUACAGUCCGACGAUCCAGAACACAGGGAGAUGAUGUGGCGUGGAUGUGGGCAGCUGGGGCUCCAUUGGCUAAGAUAGAACACUUAAAAACACUUUUCUCCCCCUUGUUGGGAGUGCUUUAUUUUUUGGAAUUCUCGGGUGCCAA: 0.678
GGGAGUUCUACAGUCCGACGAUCUAUGAAUAUGUUAAAGCUGGUGGCUCAGCUGGGAGAUUUAUAUGGGUCACUGUGCGAGCUUCCUUAUGACUUGAAUUUUGUUGUCACAUGAUAAAAGUUUCUGUGUAGCUUGGAAUUCUCGGGUGCCAA: 0.634
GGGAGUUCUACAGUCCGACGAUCUUGGUGAUGUAAGCAAGUAAAACCCAAUGGACUCUGUUGUGAUAUCCUUUUGUGUUCCAGCCUAGGCUAAGUGUUUGUGAAAGCCAUUUGUGAGUGCUUGGAGUGUUCUUUGGAAUUCUCGGGUGCCAA: 1.64
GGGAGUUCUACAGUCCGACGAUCAAAGUCUGGACUCAGCCACAAACUACUACAGCCUGUCCACCUGAAAUCUUGACUUACCCAGUCCCCACCUGUCUCUUCCUGCCUUCUUUAUCUGUAAGAACACAAAUUUGUGGAAUUCUCGGGUGCCAA: 0.381
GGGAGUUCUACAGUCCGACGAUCUCUCCACAUGUCUGCUGACAAGUUAAAGAAUCUAGCAUAUCGCAUUUGGUUUUACUUGUUGAUUUUGAGCCUUAUUGUCACAAAACAGCCUAGCUGGAAUAUUGAUGCCAUGGAAUUCUCGGGUGCCAA: 0.44
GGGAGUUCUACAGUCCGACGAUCUCUUAACCACUUUUGUCAUUUGUUUUUUGGAGUAGUUUUGAAAAGUGUUUUAUAUUGAGUGCACUUCUGUUCAUUUCCAUUGCUGCUUAUAUGCAGUGUUAGCCGAAUUAUGGAAUUCUCGGGUGCCAA: 2.59
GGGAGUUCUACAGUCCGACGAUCGAAUCGACUUCCAAACAGAUUCGAGCGAUGCUUCAUAGAGGCCUGCUCAGAGAGGAGGAUCUAUGCUGACCUCAGAAGAUGUAGAUGUUUACAUAAUUUAAUACAGAUUGUGGAAUUCUCGGGUGCCAA: 0.26

Series 3 — method: protein binding microarray; molecule type: double-stranded DNA, one strand shown; medium: in vitro; tested at: not given; relative to: not given; direction: higher = stronger binding; quantity: E-score
Target: Histone acetyltransferase KAT6A, winged helix 2, GST fusion (KAT6A, Homo sapiens, UniProt Q92794, residues 85-181)
Setting: 8-mer, flanks averaged, mean of 2 arrays, mostly near background
Residues (chain): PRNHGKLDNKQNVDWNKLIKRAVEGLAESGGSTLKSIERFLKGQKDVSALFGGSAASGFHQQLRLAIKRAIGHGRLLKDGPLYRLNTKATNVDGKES
AGCCCTAA: -0.103
ACCCCCTC: 0.0861
ACGACGTC: -0.0379
GCGTAGCC: 0.114
ATGGTTTC: 0.0132
CTTAATGC: -0.0382
GGCACGAC: -0.1
AGACGATA: -0.0777
ACGCGCAT: -0.0101
GCTCGAAA: 0.0221
ACAGTGAA: -0.0281
CGCTTCGA: 0.0167
ATCCGTCC: 0.00219
ATAAACAG: 0.0457
AGATCTGC: 0.137
ATAATTAT: 0.214
GACCCTGA: -0.139
CCGTACTA: -0.0476
GGTACTAA: -0.0557
TCCACTAA: -0.0236
ATTTATCA: 0.105
CGTTCCGC: 0.109
CTGTAGTC: -0.0872
ACGGTGTC: -0.111
TTCATGAA: -0.00292

Series 4 — method: protein-binding microarray; molecule type: double-stranded DNA, one strand shown; medium: in vitro; tested at: 940 nM top; setting: 60-bp whole probe; added: salmon DNA 0.4 mg/ml; relative to: random background probes; direction: higher = stronger binding; quantity: fitted relative affinity; all sequences stand within: GCCTAGCAC … GTCTTGATTCGCTTGACGCTGCTG
Target: Interferon regulatory factor 5, full length, phosphomimetic (IRF5, Homo sapiens, UniProt Q13568-2, residues 1-514, S451D/S453D/S456D/S462D)
CCCATTCTCAGCCCTGCGCATGTGCTA: 0.931 z-score
GACGGTTTCGGTTTCGGGATGTGCTAG: 13.5 z-score
TGTGGGTTTCGGTGTGGGAGGTGCTAG: 11 z-score
ACACATCTCACTCTAATCTCGTGCTAG: 1.46 z-score
GGCCAAACAGTATTAAACTCGTGCTAG: -0.162 z-score
GACGGTATCGGACTGGCGACGTGCTAG: 2.75 z-score
GACAGTATCGACTTTCGGGACGTGCTA: 5 z-score
TTAGGATTCGACTTTCGGTTAGTGCTA: 3.57 z-score
TTAGGTAGCGACACTGGGTTAGTGCTA: -0.214 z-score
TTAGGACTGTGACTGGGTTAGTGCTAG: -0.499 z-score
TTAGGTTTCGGTATGGGTTAGTGCTAG: 15.6 z-score
GACGGACGGGGGTTTCGGGACGTGCTA: 5.41 z-score
ATATGTAAGATATCCATATGGTGCTAG: -0.446 z-score
ACAGATGAGGAACCAAGGCCGTGCTAG: -0.648 z-score
TTAGGTCTCCTTATCCGTTAGTGCTAG: 0.345 z-score
TTCGGACTGGACACTGGGTTAGTGCTA: -0.212 z-score
